{"data": "Assay results of several laboratories", "note": "± gives the spread as reported."}
{"SMILES": "C[C@H](NC(=O)COC(=O)[C@H](C)NC(=O)CO)C(=O)O", "system": "water", "conditions": "pH 2, 37 °C", "half-life": "308 h"}
{"SMILES": "CC(C)(C)c1nc(-c2ccc(NC(=O)c3cccs3)cc2Cl)no1", "assay": "chemical stability", "system": "buffer", "conditions": "5 µM, pH 2.0, 37 °C", "half-life": "0.173 ± 0.095 h"}
{"SMILES": "O=C(CCc1ccc(CNC(C(=O)OC2CCCC2)C2CCCCC2)cn1)NO (stereo not shown)", "system": "healthy volunteers, plasma", "conditions": "oral, single dose", "half-life": "0.35 to 0.5 h"}
{"SMILES": "C[C@@H](NC(=O)[C@H](Cc1ccccc1)NC(=O)[C@@H](CCCNC(=N)N)NC(=O)[C@H](CCCN)NC(=O)[C@@H]1CNC(=O)c2cc3cc(c2)C(=O)N[C@H](Cc2ccc4ccccc4c2)C(=O)N[C@@H](CO)C(=O)N[C@@H](CC(N)=O)C(=O)N[C@H](Cc2ccc4ccccc4c2)C(=O)N[C@@H](c2ccccc2)C(=O)N[C@@H](CCCCNC3=O)C(=O)N[C@H](Cc2ccccc2)C(=O)N[C@@H](CCC(N)=O)C(=O)N[C@H](CCCNC(=N)N)C(=O)N[C@@H](CCCNC(=N)N)C(=O)N1)C(N)=O", "system": "human serum", "conditions": "37 °C", "half-life": "> 24 h"}
{"SMILES": "CCC(CC)[C@H](NC(C)=O)[C@@H]1[C@H](O)[C@@H](C(=O)OCCOC(=O)[C@@H](N)C(C)C)C[C@H]1NC(=N)N", "system": "phosphate buffer", "conditions": "pH 1.2, 37 °C", "half-life": "5.1 ± 0.383 h"}
{"SMILES": "CC(=O)N[C@H](CC(=O)O)C(=O)N[C@H](Cc1c[nH]c2ccccc12)C(=O)N[C@H](Cc1ccccc1)C(=O)N[C@H](CCCCN)C(=O)N[C@H](C)C(=O)N[C@H](Cc1ccccc1)C(=O)N[C@H](Cc1ccc(O)cc1)C(=O)N[C@H](CC(=O)O)C(=O)N[C@H](CCCCN)C(=O)N[C@@H](C(=O)N[C@H](C)C(=O)N[C@H](CCC(=O)O)C(=O)N[C@H](CCCCN)C(=O)N[C@H](Cc1ccccc1)C(=O)N[C@H](CCCCN)C(=O)N[C@H](CCC(=O)O)C(=O)N[C@H](C)C(=O)N[C@H](Cc1ccccc1)C(N)=O)C(C)C", "system": "statin-treated high-risk CHD patients, plasma", "conditions": "oral, 100 mg daily, day 13, mean, detected subjects", "half-life": "0.81 h"}
{"SMILES": "O=[N][Fe]1([N]=O)[S](CCO)[Fe]([N]=O)([N]=O)[S]1CCO", "assay": "degradation", "system": "50 mM phosphate buffer", "conditions": "pH 7.4, 37 °C", "half-life": "15.5 ± 0.6 h"}
{"SMILES": "Nc1nc2c(ncn2COCCOC(=O)[C@@H](N)CO)c(=O)[nH]1", "system": "DPBS", "conditions": "pH 6.0, 34 °C, chemical hydrolysis", "half-life": "226 ± 52 h"}
{"SMILES": "CCCCCCCCCCCCCC(=S)NCCCC[C@H](NS(C)(=O)=O)C(=O)N[C@@H](C)C(=O)N[C@@H](CCCNC(=N)N)C(N)=O", "system": "human male serum", "conditions": "150 µM, 37 °C", "half-life": "> 2 h"}
{"SMILES": "CC[C@H](C)[C@H](NC(=O)CNC(=O)CNC(=O)c1ccc2c(c1)C(=O)OC21c2ccc(O)cc2Oc2cc(O)ccc21)C(=O)N[C@@H](Cc1ccc(O)cc1)C(=O)N[C@H](C)C(=O)N[C@@H](C)C(=O)N1CCC[C@H]1C(=O)N(C)[C@@H](Cc1ccccc1)C(=O)N[C@@H](CCCCN)C(=O)N[C@@H](CCCCN)C(=O)N[C@@H](CCCCN)C(=O)N[C@@H](C)C(N)=O", "assay": "CE-LIF", "system": "Baf/BCR-ABL cell cytosolic lysate", "conditions": "1 µM, pH 7.4, 37 °C", "half-life": "0.298 h"}
{"SMILES": "[2H]C1([2H])CC[C@@H](C[C@@H](C#N)NC(=O)[C@@H]2[C@@H]3[C@H](CN2C(=O)[C@@H](NC(=O)C(F)(F)F)C(C)(C)C)C3(C)C)C(=O)N1", "system": "human liver microsomes", "conditions": "microsomes 0.5 mg/mL", "half-life": "0.592 h"}
{"SMILES": "Cc1ccccc1-c1cc(N2CCNCC2)ncc1N(C)C(=O)C(C)(C)c1cc(C(F)(F)F)cc(C(F)(F)F)c1", "system": "healthy volunteers, plasma", "conditions": "oral, dose not given", "half-life": "73.3 to 82.9 h"}
{"SMILES": "NC(COc1cc(C(F)(F)F)cc(C(F)(F)F)c1)c1ccccc1 (stereo not shown)", "assay": "chemical stability, HPLC", "conditions": "pH 7.4, 37 °C", "half-life": "> 720 h"}
{"SMILES": "CN[C@@H]1[C@H](O)[C@H](NC)[C@H]2O[C@]3(O)[C@H](O[C@@H]2[C@H]1O)O[C@H](C)C[C@@]3(O)CNCc1ccc(OC(F)(F)F)cc1", "system": "rat liver microsomes", "half-life": "28.8 h"}
{"SMILES": "Cc1nc(-c2ccc(NC(=O)c3cccs3)cc2Cl)no1", "assay": "chemical stability", "system": "buffer", "conditions": "5 µM, pH 10.0, 37 °C", "half-life": "0.768 ± 0.138 h"}
{"SMILES": "N=C(N)NCCC[C@H](NC(=O)[C@@H](Cc1ccccc1)NC(=O)[C@H](Cc1cnc[nH]1)NC(=O)COCC(=O)NCCCOCCOCCOCCCN)C(=O)N[C@@H](Cc1c[nH]c2ccccc12)C(N)=O", "assay": "LC-MS/MS", "system": "mouse serum", "conditions": "10 µM, 37 °C", "half-life": "10.6 h"}
